Experimental data pooled from the literature.
Every numbered part comes from another study and shows a few of its results, in no order. Positions count from the first letter of the parent shown.

Block 1
Target: CCNF, cyclin fold, Cln2 fusion (human)
Technique: yeast growth competition, sequencing
Sample: yeast
Notes: weak parent motif
Reference: not given
Direction: higher = stronger binding
Parent: PKN2 docking peptide (human); VSAVQKLDFSDTM
Substitution | normalised enrichment score
V1S | 0.489
S2D | 0.19
S2P | 0.756
V1Q | 1.5
L7E | 0.0617
D8C | 0.71
F9S | -0.132
T12F | 1.25

Block 2
Target: Prothrombin, mature alpha-thrombin (F2, Homo sapiens, UniProt P00734)
Technique: aptamer microarray, sandwich
Molecule type: DNA with 2'F-ANA
Sample: in vitro
Concentration: 200 nM
Notes: whole 15-mer aptamer, many near background
Added: Cy3 exosite-II aptamer, 400 nM
Direction: higher = stronger binding
Oligonucleotide: GGTTGGTGTGGTTGG
Modification | mean fluorescence intensity
2'F-ANA at 3 4 5 7 9 10 15 | 54.7 a.u.
2'F-ANA at 3 5 9 10 12 13 | 122 a.u.
2'F-ANA at 1 3 4 6 10 12 13 15 | 68.5 a.u.
2'F-ANA at 7 8 10 11 | 174 a.u.
2'F-ANA at 2 4 5 7 8 11 15 | 63.8 a.u.
2'F-ANA at 4 6 8 10 13 | 65.3 a.u.
2'F-ANA at 2 5 12 13 15 | 106 a.u.
2'F-ANA at 3 4 6 9 10 11 15 | 210 a.u.
2'F-ANA at 1 2 3 4 5 6 7 12 15 | 125 a.u.
2'F-ANA at 1 2 4 6 8 11 12 13 14 | 54.1 a.u.
2'F-ANA at 1 4 6 10 11 12 15 | 54.8 a.u.

Block 3
Target: Histone acetyltransferase KAT6A, winged helix 2, GST fusion (KAT6A, Homo sapiens, UniProt Q92794, residues 85-181)
Technique: protein binding microarray
Molecule type: double-stranded DNA, one strand shown
Sample: in vitro
Concentration: not given
Notes: 8-mer, flanks averaged, mean of 2 arrays, mostly near background
Reference: not given
Direction: higher = stronger binding
Construct (chain): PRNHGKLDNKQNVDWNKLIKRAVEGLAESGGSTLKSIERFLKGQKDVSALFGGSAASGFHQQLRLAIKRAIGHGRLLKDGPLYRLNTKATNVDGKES
Oligonucleotide | E-score
CCCAACTA | 0.0565
CCCATTAG | -0.267
AATCTTCT | -0.0617
CCTACATC | -0.19
CTAACATA | -0.137
AGACCACC | -0.0455
CAGATGTC | -0.121
AGGTAATA | -0.116
GTAGGGAC | -0.136
AAACAATA | 0.0728
AAAACTAT | -0.13

Mixed results
Molecule | target | test | system | setting | scale | measurement | result
PhoQ, residues 284 288 289 292 302 303 SQSLSM | PhoP, residues 12 14 15 18 19 NMSFL (Escherichia coli, UniProt P23836) | Sort-seq, item: YFP reporter | E. coli | PhoQ-PhoP variant library, added: 10 µM Mg2+ | reference: high Mg2+ state, higher = stronger signaling | fold induction | 13

A few entries again (block 1):
Substitution | normalised enrichment score
S2D | 0.19
S2P | 0.756
V1Q | 1.5
L7E | 0.0617
D8C | 0.71
